Measurements from different studies.
Every numbered part comes from another study and shows a few of its results, in no order. Positions count from the first letter of the parent shown.

Set 1 — technique: RNA Bind-n-Seq; form: RNA; medium: in vitro; concentration: 200 nM; setting: whole 134-nt RNA, ends assumed; together with: 150 mM LiCl; relative to: input library; direction: higher = stronger binding; library: 7-deaza-guanosine replaces G
Target: Ras GTPase-activating protein-binding protein 1, full length (G3BP1, Homo sapiens, UniProt Q13283)
Chain of UniProt Q13283 (whole entry, looked up): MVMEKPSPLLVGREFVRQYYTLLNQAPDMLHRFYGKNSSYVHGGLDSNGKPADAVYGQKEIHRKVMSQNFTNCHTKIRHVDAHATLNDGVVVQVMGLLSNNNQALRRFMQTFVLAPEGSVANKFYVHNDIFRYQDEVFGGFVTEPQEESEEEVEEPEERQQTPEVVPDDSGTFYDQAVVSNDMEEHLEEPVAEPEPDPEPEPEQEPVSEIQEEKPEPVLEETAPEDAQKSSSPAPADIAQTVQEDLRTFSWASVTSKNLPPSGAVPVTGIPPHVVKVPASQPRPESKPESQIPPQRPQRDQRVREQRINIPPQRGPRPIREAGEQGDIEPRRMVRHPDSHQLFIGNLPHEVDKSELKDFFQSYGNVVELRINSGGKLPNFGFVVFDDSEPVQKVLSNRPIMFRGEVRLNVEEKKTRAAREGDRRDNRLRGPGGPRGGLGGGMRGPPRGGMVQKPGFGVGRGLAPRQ
All sequences stand within: GGGAGUUCUACAGUCCGACGAUC … UGGAAUUCUCGGGUGUCAAGG
| Sequence | log2 enrichment |
| --- | --- |
| AGUCCUGUGCUACACAUCGUAUGUACCGAAUCGGUUUUUGGUUUUUGGGUUUUUGGGAAAGUAUUAUGUUACGCCGUUCGGAUCUGCACU | -0.906 |
| AGUCCUGUGCUACACAUCGUAUGUACCGAAUCGGAAAAAAAGGUUUUUUUGGUUUGGAAAGUAUUAUGUUACGCCGUUCGGAUCUGCACU | -3.46 |
| AAGUCCUGUGCUACACAUCGUAUGUACCGAAUCGGGGUUUUGGUUUUGGUUUUGGGAAAGUAUUAUGUUACGCCGUUCGGAUCUGCACUU | -1.21 |
| UCCUCAAGUCCUGUGCUACACAUCGUAUGUACCGAAUCGGGCGGGGCGGCGGAAAGUAUUAUGUUACGCCGUUCGGAUCUGCACUUCCAG | 0.853 |
| ACCAUGCAGGUGGGCAUCUUUGGGAAGUGGGGCAAGGGGGGGAUAGGGAGGGGGGUAACACUUUGCGAACAGGUGGUCCCAGGUCGUUUC | -0.0989 |
| GUCCUGUGCUACACAUCGUAUGUACCGAAUCGGGGUUUUUGGGGAGGGGAAAAAGGGGAAAGUAUUAUGUUACGCCGUUCGGAUCUGCAC | 0.11 |
| CUCAAGUCCUGUGCUACACAUCGUAUGUACCGAAUCGGUGGAAAGGUUUUUGGAAAGUAUUAUGUUACGCCGUUCGGAUCUGCACUUCCA | 0.131 |
| CAAGUCCUGUGCUACACAUCGUAUGUACCGAAUCGGGAAGGGGAAGGGGAAGGGGAAAGUAUUAUGUUACGCCGUUCGGAUCUGCACUUC | -0.0958 |

Set 2 — technique: DHFR PCA, deep sequencing; medium: yeast; together with: (+)-ABA 2500 µM; relative to: wild-type fitted maximum; direction: higher = stronger binding
Target: ABI1, truncated, D143A, DHFR fusion (Arabidopsis thaliana)
Setting: methotrexate growth selection, single substitutions
Starting sequence: PYL1, truncated, DHFR fusion (Arabidopsis thaliana); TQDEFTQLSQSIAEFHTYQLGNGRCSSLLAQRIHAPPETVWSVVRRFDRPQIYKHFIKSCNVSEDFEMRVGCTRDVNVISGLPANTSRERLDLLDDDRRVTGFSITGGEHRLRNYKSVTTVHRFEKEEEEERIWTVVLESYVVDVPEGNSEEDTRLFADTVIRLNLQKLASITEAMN
| Change | relative binding score [%] |
| --- | --- |
| E152Q | 95.9 |
| N77T | 99.1 |
| K54N | 65.1 |
| N149W | 19 |
| M176P | 104 |
| V118T | 102 |
| I33Y | 37.3 |
| L8W | 107 |
| I52V | 93.3 |
| R74Q | 13.8 |
| W41R | 2.83 |
| K54H | 43 |
| E64Q | 97.3 |
| S63Q | 93.5 |
| E125L | 105 |
| W41M | -1.25 |

Set 3 — target: CCND2, cyclin fold, Cln2 fusion (human); technique: yeast growth competition, sequencing; medium: yeast; setting: weak parent motif; relative to: not given; direction: higher = stronger binding
Starting sequence: ORC1 docking peptide (human); PRARKRLELGNLG; partner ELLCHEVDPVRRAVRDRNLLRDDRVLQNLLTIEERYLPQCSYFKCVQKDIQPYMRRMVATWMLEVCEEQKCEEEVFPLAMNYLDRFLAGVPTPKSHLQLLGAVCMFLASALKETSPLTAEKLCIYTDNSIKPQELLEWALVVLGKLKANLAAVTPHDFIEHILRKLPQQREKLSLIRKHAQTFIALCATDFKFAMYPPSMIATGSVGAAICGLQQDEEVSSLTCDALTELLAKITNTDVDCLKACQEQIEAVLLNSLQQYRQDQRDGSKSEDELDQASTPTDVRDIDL
| Change | normalised enrichment score |
| --- | --- |
| R2Q | 0.00544 |
| R6F | 0.22 |
| L12K | -0.0426 |
| L9A | 0.623 |
| A3P | 0.0485 |
| L12S | 0.149 |
| L9G | 0.0899 |
| G13A | 0.197 |
| L9V | 0.353 |
| N11C | 0.283 |
| G13L | 0.0346 |
| R4W | 0.201 |
| R6E | -0.179 |
| K5E | 0.013 |
| L12N | 0.336 |
| G10V | 0.0427 |
| L12V | 0.0536 |
| G13C | 0.417 |
| K5G | 0.16 |
| G10T | 0.202 |
| N11G | 0.198 |
| R2M | 0.245 |
| L9I | 0.25 |
| L7P | -0.303 |
| P1K | 0.435 |

Set 4 — technique: protein-binding microarray; form: double-stranded DNA, one strand shown; medium: in vitro; concentration: 250 nM; setting: 60-bp whole probe; together with: salmon DNA 0.4 mg/ml; relative to: random background probes; direction: higher = stronger binding; all sequences stand within: GCCTAGCAC … GTCTTGATTCGCTTGACGCTGCTG
Target: Interferon regulatory factor 5, full length, phosphomimetic (IRF5, Homo sapiens, UniProt Q13568-2, residues 1-514, K96S/S451D/S453D/S456D/S462D)
| Sequence | log fluorescence [z-score] |
| --- | --- |
| GAAGGTTTCCTTCTCCTGACGTGCTAG | 0.799 |
| GACGGTCTCGGTATCGGCACGTGCTAG | 1.5 |
| GACGGTTTTGGTATCGGGACGTGCTAG | 3.42 |
| GACGGCATCGGTCTCGGGACGTGCTAG | -0.0539 |
| TTAGGTTTCCATATCCTTTAGTGCTAG | 1.18 |
| TATGGTTTTTTTTTAATTGAGTGCTAG | 0.314 |
| AACGGACTGGACTTTCGGGACGTGCTA | 4.55 |
| GACGATACCGGGACTGGAGACGTGCTA | 0.207 |
| TTAGACCTGAGACTGGATTAGTGCTAG | -0.469 |
| GACGGACTGGGACTGGCGACGTGCTAG | -0.75 |
| TTAGGTCTTCTACTGCTTTAGTGCTAG | 0.0569 |
| TTAGATTTCAGTTTCAATTAGTGCTAG | 5.7 |
| GACGATATCAGACAGGAGACGTGCTAG | 0.573 |
| TACGATATCAGACTGGAGACGTGCTAG | 0.38 |
| CACGGACTGGGGACTGGGGACGTGCTA | -0.879 |
| TTAGGTTCCGGTTTAGGTTAGTGCTAG | 2.57 |
| TGAAAATTAGTGTTTGCCCTAGTGCTA | 0.82 |
| GACGGTATTGGTCTCGGGACGTGCTAG | 0.479 |
| GACGAACTGACACTGGAGACGTGCTAG | -0.227 |

Excerpt of the above (set 2):
| Change | relative binding score [%] |
| --- | --- |
| N77T | 99.1 |
| S63Q | 93.5 |
| W41R | 2.83 |
| V118T | 102 |
| I52V | 93.3 |
| E64Q | 97.3 |
| W41M | -1.25 |
| R74Q | 13.8 |
